Experimental data of several laboratories.
Protocols differ between the studies behind these lines. Several values in a cell are separate wells, animals, samples, runs or records. ± gives the spread as reported.

SMILES | test | test system | setting | scale | quantity | value
CC(C)CCCC(C)C1CCC2C3CC=C4CC(OC(=O)CCC(=O)NCCCOCCOCCOCCCNC(=O)c5ccc(C(=O)O)c(-c6c7ccc(=O)cc-7oc7cc(O)ccc67)c5)CCC4(C)C3CCC12C (centres unmarked) | fluorescence correlation spectroscopy | water | 36 °C |  | hydrodynamic radius | 0.79 nm
CN1CCCNC(=O)c2cccc(c2)C(=O)NCCCN(C)CCCNc2cccc3c2C(=O)c2cccc(c2C3=O)NCCC1 |  | mouse, serum | dose not given |  | ALT | 27 IU/L and 30 IU/L and 31 IU/L
CC(C)(C)NCC(SS(=O)(=O)O)c1ccccc1 (centres unmarked) |  | Swiss Webster mice, Schistosoma mansoni-infected | 600 mg/kg single dose on day 7 post-infection, perfusion day 44 post-infection |  | body weight | 30 g
O=C(Nc1cnccc1-c1ccc([18F])cc1)c1ccnc(NC(=O)C2CC2)c1 |  | FVB/NJ mice (both sexes), feces | intravenous, dose not given, 120 min, together with: tariquidar 15 mg/kg i.v. pre-dose |  | SUV | 6.04
CC(C)(O)c1ncc([S@](N)(=O)=NC(=O)Nc2c3c(cc4c2CCC4)CCC3)s1 | item: infections and infestations | healthy human | oral, dose not given, 14 days, all active multiple doses pooled |  | subjects with TEAEs | 10%
CCCCN1C(=O)c2cccc3c(NCCN4CCOCC4)ccc(c23)C1=O |  | dichloromethane |  |  | fluorescence quantum yield | 0.16
O=c1c2ccccc2[se]n1CCCCCCn1[se]c2ccccc2c1=O | shake-flask, RP-HPLC | glycerine | 24 h, 25 °C |  | solubility | 40 ± 1 µg/mL
CN(C)C(=O)c1ccc(N2Cc3cn(Cc4ccc(F)cc4)nc3C2)cc1 | metabolic stability | human, liver microsomes |  |  | half-life | 0.6 h
Cc1cccc(-c2ccc3nc(NC(=O)C4CCCCC4)nn3c2)c1 |  | mouse liver microsomes | 30 min |  | metabolic turnover | 100%
COc1ccc2c(c1)CCn1c[n+]3c(c1-2)-c1ccc(OC)cc1CC3 |  | female NSG mice, blood | 6 mg/kg, day 20, 5 days per week |  | mean corpuscular volume | 48.9 ± 1.86 fL
Cc1cc(-c2ccc(C(=O)[C@@H]3CCCC[C@H]3C(=O)Nc3cnn4c3C(=O)NCC4)cc2)[nH]n1 |  | human, urine | oral, 200 mg, 0-48 h | baseline: dose | cumulative radioactivity recovery | 6.63% and 4.82% and 6.1% and 6.34% and 4.85% and 5.48%
O=S1(=O)CC2CCCCC2CS1 (centres unmarked) | phase solubility, NMR | water | 25 °C, together with: hydroxypropyl-β-cyclodextrin 38.8 mM |  | solubility | 5.52 mM
O=C([O-])CN1CCN(CC(=O)[O-])CCN(C(CO)C(O)CO)CCN(CC(=O)[O-])CC1.[Dy+3] (centres unmarked) | ICP-MS | cynomolgus monkey, feces | 5 days post-injection | baseline: dose | cumulative fecal excretion | 0.4%
O=C(c1ccnc(N2Cc3cn(Cc4ccc(F)cc4)nc3C2)n1)N1CCCCC1 | metabolic stability | human, liver microsomes |  |  | half-life | 0.85 h
CN1CCC[C@]1(C)/C=C/S(=O)(=O)NC(=O)Nc1c2c(cc3c1CC(O)C3)CCC2 (some centres unmarked) |  | human, plasma | oral, 50 mg twice daily of parent drug, metabolite of dosed drug | baseline: day 14 over day 1 | AUC(0-24) accumulation ratio | 1.5
COc1ccc2c(c1)C(C)(C)C(/C=C/C1=C(Oc3ccc(C(=O)NCCCCOc4cc(CN(Cc5ccccn5)Cc5ccccn5)cc(CN(Cc5ccccn5)Cc5ccccn5)c4)cc3)C(=C/C=C3/N(CCCCS(=O)(=O)[O-])c4ccc(OC)cc4C3(C)C)CCC1)=[N+]2CCCCS(=O)(=O)[O-].O=[N+]([O-])[O-].O=[N+]([O-])[O-].[99Tc+].[C-]#[O+].[C-]#[O+].[C-]#[O+].[Zn+2] |  | BALB/c mouse, Staphylococcus aureus myositis, bone | 12 h |  | tissue uptake | 0.79 %ID/g and 0.54 %ID/g and 1.01 %ID/g and 1.09 %ID/g
Cc1nn(-c2nc3c(F)cc(F)cc3s2)c(O)c1C(c1ccc(C(F)(F)F)cc1)c1c(C)nn(-c2nc3c(F)cc(F)cc3s2)c1O |  | ICR mouse, plasma | intraperitoneal, 10 mg/kg |  | terminal half-life | 6.74 h and 8.98 h and 5.18 h
COc1ccc2c(c1)O[B-]1(c3ccccc3)OC(=O)C(c3ccccc3)=N[N+]1=C2 (centres unmarked) | UV/vis decay | aqueous buffer |  |  | hydrolysis activation energy | 20.2 kcal/mol
O=S(=O)(NC1=NCCCCC1)c1ccc2sc(NS(=O)(=O)c3ccc4ccccc4c3)nc2c1 | dynamic light scattering | buffer | 20 µM |  | hydrodynamic radius | 1.86 nm

SMILES | test | test system | setting | scale | quantity | value
CCCC[C@H]1C(=O)N(C)[C@@H](CCCC)C(=O)N[C@@H](CCCCNC(=S)Nc2ccc(CN3CCN(CC(=O)O)CCN(CC(=O)O)CC3)cc2)C(=O)N[C@H](C(=O)NCC(N)=O)CSCC(=O)N[C@@H](Cc2ccc(O)cc2)C(=O)N(C)[C@@H](C)C(=O)N[C@@H](CC(N)=O)C(=O)N2CCC[C@H]2C(=O)N[C@@H](Cc2cnc[nH]2)C(=O)N[C@@H](CCC(=O)O)C(=O)N2C[C@H](O)C[C@H]2C(=O)N[C@@H](Cc2c[nH]c3ccccc23)C(=O)N[C@@H](CO)C(=O)N[C@@H](Cc2cn(CC(=O)O)c3ccccc23)C(=O)N1C [fluorine-18 labelled] | PET, item: PD-L1 | huCD34 mouse A-375 xenograft, tumour periphery beyond 3 mm | anti-PD-1 monotherapy |  | SUV | 1.19 ± 0.49 SUV
O=C(O)CCCCC1(N(CC(=O)O)CC(=O)O)CN(CC(=O)O)CCN(CC(=O)O)C1 | pH-potentiometry, item: logK1H | 0.15 M NaClO4 | 25 °C |  | protonation constant (log) | 10.2
CC(=O)N([O-])CCCCCNC(=O)CCC(=O)N([O-])CCCCCNC(=O)CCC(=O)N([O-])CCCCCN.[89Zr+4] |  | mouse, heart | 1 h |  | tracer uptake | 0.19 %ID/g
[123I]c1ccc2nc(-c3ccc(-n4ccnn4)nc3)cn2c1 |  | male Wistar rat, lung | intravenous, 4 MBq, 30 min |  | tracer uptake | 0.399 %ID/g
CN1CCC[C@]1(C)/C=C/S(=O)(=O)NC(=O)Nc1c2c(cc3c1C(O)CC3)CCC2 (some centres unmarked) |  | human, plasma | oral, 100 mg twice daily of parent drug, day 1, metabolite of dosed drug |  | AUC(0-24) | 311 µg·h/mL
N[C@@H](CC(=O)O)C(=O)OC(C(=O)O)c1ccc(Br)cc1[N+](=O)[O-] (mixture of isomers) | 1H NMR, dark | 50 mM sodium phosphate | concentration not given, pH 5.8, room temperature, 12.5% DMSO-d6 |  | hydrolysis half-life, A isomer | 10.3 ± 0.4 h
CN1CCC[C@]1(C)/C=C/S(=O)(=O)NC(=O)Nc1c2c(cc3c1CCC3)CCC2 | item: gastrointestinal disorders | human | oral, 12.5 mg twice daily, 14 days, multiple ascending dose |  | subjects with adverse event | 0%
Cc1noc(C)c1Cn1cc(N2C(=O)CN(Cc3cccc(OS(=O)(=O)O)c3)C2=O)cn1 |  | Sprague-Dawley rat, male | oral, 30 mg/kg of parent drug, 0.25 h |  | plasma concentration | 2310 ng/mL
C=C(NC(=O)c1csc(-c2nc3c(cc2O)-c2nc(cs2)C(=O)NC(C(C)O)C(=O)NC(=C(C)OC)c2nc(cs2)C(=O)NC2c4nc(cs4)C(=O)NC(COC(=O)c4c5c6c(cccc6n4O)COC(=O)C(OC4CC(C)(O)C(N(C)C)C(C)O4)C2OC5)c2nc-3cs2)n1)C(N)=O (centres unmarked) |  | ICR mice, Streptococcus pneumoniae ATCC 49169 infected, immunocompromised, blood | intravenous, 2 mg/kg/day twice daily |  | AUC(0-inf) | 0.175 µg·h/mL
Cc1nc(N)nc2c1C(=O)N[C@@H](c1ccc(F)cc1-c1cccc(O[11CH3])n1)C2 | ex vivo biodistribution | healthy mice, brain | 60 min post-injection, baseline, vehicle pre-treatment |  | tracer uptake | 4.1 ± 1 %ID
C/C(N)=N/C(=N\S(=O)(=O)c1ccc(C(F)(F)F)cc1)N1C[C@H](c2ccccc2)C(c2ccc(Cl)cc2)=N1 |  | male C57BL/6 mouse, brain | intravenous, 10 mg/kg |  | Cmax | 83.6 ng/mL
CC(C)C[C@H](NC(=O)[C@@H](CCCCNC(=O)[C@@H](Cc1ccccc1)NC(=O)CCCCCCCNC(=O)CN1CCN(CC(=O)O)CCN(CC(=O)O)CCN(CC(=O)O)CC1)NC(=O)[C@H](Cc1ccc(O)cc1)NC(=O)[C@H](CO)NC(=O)[C@H](Cc1c[nH]c2ccccc12)NC(=O)[C@H](Cc1c[nH]cn1)NC(=O)[C@@H]1CCC(=O)N1)C(=O)N[C@@H](CCCNC(=N)N)C(=O)N1CCC[C@H]1C(=O)NCC(N)=O [indium-111 labelled] | biodistribution | male athymic nude mice, DU-145 prostate cancer xenograft, tumor | intravenous, 0.037 MBq, 1 h post-injection |  | tissue uptake | 0.88 ± 0.2 %ID/g
C=Cc1ccccc1[B-]12OC(=O)C(c3ccccc3)=N[N+]1=C(CC)c1ccc(N(CC)CC)cc1O2 (centres unmarked) | UV/vis decay | aqueous buffer |  |  | hydrolysis activation energy | 23.8 kcal/mol
C=CC(=O)Nc1cc(Nc2nccc(-c3cn(C)c4ccccc34)n2)c(OC)cc1N(C)CCNC |  | human, dried blood spots | 72 h, on ice, high QC level |  | remaining compound | 70%
CN1C(=O)[C@@H](Cc2ccc(O)c(I)c2)NC(=O)CNC(=O)[C@H](Cc2ccc3ccccc3c2)NC(=O)[C@H](CCCNC(=N)N)NC(=O)[C@H]1CCCNC(=O)c1ccc(CNC(=O)CN2CCN(CC(=O)O)CCN(CC(=O)O)CCN(CC(=O)O)CC2)cc1 [lutetium-177 labelled] | 1 | human, extrapolated from mouse, Upper large intestine wall |  |  | total absorbed dose | 0.04 mGy/MBq
CN1CCC[C@]1(C)/C=C/S(=O)(=O)NC(=O)Nc1c2c(cc3c1CCC3O)CCC2 (some centres unmarked) |  | human, plasma | oral, 100 mg twice daily of parent drug, metabolite of dosed drug | baseline: day 14 over day 1 | AUC(0-24) accumulation ratio | 1.4
[2H]C([2H])([18F])Oc1cc(C(=O)OCC2CCN(CCCC)CC2)ccc1N | PET | rhesus monkey, whole brain | dose not given, average |  | time to peak radioactivity | 6 min
O=C(Nc1cnccc1-c1ccc([18F])nc1)c1ccnc(NC(=O)C2CC2)c1 |  | FVB/NJ mice, both sexes, brain | intravenous, 5 min, median, no P-gp inhibitor |  | SUV | 0.184
O=C(NS(=O)(=O)c1cccs1)c1cc2ccccc2n1Cc1ccc(Br)c2ccccc12 |  | KM mouse, chronic hyperuricaemia model | dose not given, day 23 |  | body weight | 37 g and 36.4 g and 38.4 g and 39.8 g and 34.4 g and 36.8 g
